Measurements of several laboratories.
rep main protease: Replicase polyprotein 1ab, main protease (rep, Severe acute respiratory syndrome coronavirus 2, UniProt P0DTD1)
CHRNA1/CHRNG/CHRND: CHRNA1/CHRNG/CHRND (Homo sapiens, UniProt P02708+P07510+Q07001)
Chain of UniProt P07510 (whole entry, looked up): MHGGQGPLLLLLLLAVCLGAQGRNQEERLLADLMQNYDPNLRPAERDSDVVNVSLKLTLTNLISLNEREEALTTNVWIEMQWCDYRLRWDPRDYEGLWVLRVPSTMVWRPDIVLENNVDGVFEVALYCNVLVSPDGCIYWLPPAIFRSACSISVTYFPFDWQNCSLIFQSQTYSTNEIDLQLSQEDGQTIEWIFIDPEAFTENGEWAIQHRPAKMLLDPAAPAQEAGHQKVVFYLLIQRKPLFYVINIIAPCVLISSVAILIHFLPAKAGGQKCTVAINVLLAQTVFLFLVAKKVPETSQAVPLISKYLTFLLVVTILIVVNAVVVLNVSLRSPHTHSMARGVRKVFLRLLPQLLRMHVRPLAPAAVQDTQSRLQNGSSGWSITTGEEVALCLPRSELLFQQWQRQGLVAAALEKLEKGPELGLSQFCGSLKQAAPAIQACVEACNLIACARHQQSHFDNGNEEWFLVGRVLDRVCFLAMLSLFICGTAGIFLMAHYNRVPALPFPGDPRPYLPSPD
Chain of UniProt Q07001 (whole entry, looked up): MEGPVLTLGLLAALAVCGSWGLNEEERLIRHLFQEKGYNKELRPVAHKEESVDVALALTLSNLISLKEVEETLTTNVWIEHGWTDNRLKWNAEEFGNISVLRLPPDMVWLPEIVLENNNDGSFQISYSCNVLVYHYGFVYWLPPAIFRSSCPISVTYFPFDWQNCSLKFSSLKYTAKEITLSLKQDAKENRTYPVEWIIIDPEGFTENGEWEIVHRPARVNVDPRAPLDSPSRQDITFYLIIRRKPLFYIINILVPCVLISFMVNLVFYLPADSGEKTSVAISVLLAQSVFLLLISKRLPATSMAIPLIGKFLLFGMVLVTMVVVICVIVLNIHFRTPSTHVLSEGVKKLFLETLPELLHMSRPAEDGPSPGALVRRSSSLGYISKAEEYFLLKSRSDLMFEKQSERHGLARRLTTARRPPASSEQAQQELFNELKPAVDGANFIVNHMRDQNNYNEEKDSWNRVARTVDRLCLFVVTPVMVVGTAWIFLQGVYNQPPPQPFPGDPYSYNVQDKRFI
Chain of UniProt P02708 (whole entry, looked up): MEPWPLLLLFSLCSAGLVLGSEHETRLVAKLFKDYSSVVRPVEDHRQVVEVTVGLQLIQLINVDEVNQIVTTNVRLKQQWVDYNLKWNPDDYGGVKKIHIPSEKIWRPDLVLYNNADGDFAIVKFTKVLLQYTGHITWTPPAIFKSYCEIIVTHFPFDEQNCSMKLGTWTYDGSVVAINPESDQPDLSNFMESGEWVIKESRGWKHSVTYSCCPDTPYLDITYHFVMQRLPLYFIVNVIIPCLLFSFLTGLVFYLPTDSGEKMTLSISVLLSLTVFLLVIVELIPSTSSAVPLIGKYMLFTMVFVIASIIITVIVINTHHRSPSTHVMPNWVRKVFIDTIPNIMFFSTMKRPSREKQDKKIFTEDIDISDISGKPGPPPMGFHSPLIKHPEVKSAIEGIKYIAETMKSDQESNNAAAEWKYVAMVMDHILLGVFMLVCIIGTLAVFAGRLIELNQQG
RBD, SARS-CoV-2, spike, with ACE2: Angiotensin-converting enzyme 2, with SARS-CoV-2 spike RBD (ACE2, Homo sapiens, UniProt Q9BYF1)
Chain of UniProt Q9BYF1 (whole entry, looked up): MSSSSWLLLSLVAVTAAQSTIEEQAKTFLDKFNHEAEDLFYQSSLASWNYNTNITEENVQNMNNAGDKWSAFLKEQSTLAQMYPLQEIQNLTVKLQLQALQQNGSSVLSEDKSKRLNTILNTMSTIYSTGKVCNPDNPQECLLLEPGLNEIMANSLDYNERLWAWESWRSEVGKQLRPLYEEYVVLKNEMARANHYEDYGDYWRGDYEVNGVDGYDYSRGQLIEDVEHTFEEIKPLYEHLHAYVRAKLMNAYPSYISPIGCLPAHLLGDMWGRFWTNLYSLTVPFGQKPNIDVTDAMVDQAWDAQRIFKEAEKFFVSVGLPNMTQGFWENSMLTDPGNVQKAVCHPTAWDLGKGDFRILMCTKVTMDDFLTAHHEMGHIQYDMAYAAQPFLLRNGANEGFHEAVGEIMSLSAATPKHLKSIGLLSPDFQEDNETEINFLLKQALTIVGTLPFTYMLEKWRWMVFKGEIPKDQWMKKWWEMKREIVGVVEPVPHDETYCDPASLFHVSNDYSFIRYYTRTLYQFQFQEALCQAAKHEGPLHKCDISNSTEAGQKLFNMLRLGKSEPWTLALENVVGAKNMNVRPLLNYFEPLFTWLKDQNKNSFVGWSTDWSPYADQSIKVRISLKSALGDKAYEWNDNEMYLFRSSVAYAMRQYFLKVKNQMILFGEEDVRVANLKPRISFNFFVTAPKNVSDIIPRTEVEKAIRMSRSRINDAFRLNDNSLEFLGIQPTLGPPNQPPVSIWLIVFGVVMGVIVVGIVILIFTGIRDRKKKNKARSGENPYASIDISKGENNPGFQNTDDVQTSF
Spike glycoprotein: Spike glycoprotein (Severe acute respiratory syndrome coronavirus 2, UniProt P0DTC2)
plsY3: Glycerol-3-phosphate acyltransferase 3 (plsY3, Bacillus anthracis, UniProt Q81Y92)
Chain of UniProt Q81Y92 (whole entry, looked up): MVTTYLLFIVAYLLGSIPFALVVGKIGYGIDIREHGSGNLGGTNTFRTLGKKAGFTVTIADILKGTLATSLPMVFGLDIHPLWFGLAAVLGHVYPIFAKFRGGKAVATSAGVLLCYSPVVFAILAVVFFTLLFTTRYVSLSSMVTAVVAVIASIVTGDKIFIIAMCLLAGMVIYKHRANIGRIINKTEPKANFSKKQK
Chain of UniProt Q5XXP4 (whole entry, looked up): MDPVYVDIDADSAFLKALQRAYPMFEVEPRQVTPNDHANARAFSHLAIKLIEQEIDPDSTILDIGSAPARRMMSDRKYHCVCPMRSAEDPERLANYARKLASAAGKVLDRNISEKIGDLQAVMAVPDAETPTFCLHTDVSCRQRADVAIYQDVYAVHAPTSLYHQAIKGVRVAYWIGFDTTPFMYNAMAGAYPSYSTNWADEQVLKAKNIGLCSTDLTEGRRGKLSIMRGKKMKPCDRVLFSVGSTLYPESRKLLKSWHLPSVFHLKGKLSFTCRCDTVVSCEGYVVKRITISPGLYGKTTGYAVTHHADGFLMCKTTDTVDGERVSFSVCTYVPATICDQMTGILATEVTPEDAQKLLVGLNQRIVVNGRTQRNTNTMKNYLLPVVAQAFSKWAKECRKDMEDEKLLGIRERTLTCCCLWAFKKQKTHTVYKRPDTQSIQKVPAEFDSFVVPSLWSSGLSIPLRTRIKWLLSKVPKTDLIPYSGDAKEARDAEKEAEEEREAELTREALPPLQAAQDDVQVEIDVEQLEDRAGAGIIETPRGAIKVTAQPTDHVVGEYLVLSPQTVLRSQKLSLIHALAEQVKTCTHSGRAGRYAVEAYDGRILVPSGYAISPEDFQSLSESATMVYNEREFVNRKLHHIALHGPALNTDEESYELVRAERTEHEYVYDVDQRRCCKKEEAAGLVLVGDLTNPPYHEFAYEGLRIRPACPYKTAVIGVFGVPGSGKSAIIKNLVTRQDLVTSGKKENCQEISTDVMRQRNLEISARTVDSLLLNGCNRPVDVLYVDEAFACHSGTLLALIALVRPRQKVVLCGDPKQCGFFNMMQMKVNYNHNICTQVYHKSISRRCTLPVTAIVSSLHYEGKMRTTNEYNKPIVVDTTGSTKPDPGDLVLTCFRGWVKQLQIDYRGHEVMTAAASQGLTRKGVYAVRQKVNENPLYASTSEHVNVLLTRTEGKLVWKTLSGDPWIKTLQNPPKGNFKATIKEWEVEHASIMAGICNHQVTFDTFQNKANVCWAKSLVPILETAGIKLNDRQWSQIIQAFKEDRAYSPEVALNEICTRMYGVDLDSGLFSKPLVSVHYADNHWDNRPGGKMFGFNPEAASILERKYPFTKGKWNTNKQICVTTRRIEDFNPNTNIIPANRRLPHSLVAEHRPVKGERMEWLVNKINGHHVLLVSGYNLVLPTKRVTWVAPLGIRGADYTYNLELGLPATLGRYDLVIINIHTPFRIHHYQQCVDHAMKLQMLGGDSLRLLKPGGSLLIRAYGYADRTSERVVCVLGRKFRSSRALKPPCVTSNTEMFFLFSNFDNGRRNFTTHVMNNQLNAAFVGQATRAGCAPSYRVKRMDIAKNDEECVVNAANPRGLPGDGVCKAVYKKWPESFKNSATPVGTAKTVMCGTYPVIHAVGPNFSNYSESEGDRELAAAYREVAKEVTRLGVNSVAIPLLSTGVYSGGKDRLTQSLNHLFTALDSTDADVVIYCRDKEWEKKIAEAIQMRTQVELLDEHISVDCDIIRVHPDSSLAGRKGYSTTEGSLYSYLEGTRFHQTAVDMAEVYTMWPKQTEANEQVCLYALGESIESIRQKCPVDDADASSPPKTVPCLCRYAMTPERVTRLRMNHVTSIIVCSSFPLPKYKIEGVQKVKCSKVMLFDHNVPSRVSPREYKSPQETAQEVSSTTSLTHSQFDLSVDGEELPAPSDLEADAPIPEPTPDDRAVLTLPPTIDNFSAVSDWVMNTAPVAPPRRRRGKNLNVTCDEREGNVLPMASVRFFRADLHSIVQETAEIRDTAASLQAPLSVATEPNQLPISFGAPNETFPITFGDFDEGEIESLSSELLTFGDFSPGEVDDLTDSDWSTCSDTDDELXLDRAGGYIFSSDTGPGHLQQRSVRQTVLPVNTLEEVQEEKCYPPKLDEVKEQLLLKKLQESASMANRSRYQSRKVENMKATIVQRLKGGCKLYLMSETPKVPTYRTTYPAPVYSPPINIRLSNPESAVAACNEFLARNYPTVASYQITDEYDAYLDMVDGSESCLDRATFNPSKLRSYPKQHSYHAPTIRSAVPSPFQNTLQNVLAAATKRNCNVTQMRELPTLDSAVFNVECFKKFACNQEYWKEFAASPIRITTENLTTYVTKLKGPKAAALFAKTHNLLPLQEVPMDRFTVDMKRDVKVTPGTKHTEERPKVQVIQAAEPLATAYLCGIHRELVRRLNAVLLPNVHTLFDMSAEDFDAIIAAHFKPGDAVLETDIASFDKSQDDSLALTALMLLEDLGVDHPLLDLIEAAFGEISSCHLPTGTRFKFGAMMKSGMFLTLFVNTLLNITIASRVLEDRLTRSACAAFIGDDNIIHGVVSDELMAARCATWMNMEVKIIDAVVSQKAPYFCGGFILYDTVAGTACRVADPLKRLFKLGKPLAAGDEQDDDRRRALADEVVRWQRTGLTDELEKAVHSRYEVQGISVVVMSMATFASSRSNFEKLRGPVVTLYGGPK

COC[C@H](NC(=O)c1cnc(C)s1)C(=O)N[C@@H](COC)C(=O)N[C@@H](Cc1ccccc1)C(=O)[C@@]1(C)CO1 — inhibition (rep main protease; reporter gene (Gaussia luciferase), inhibitor; 20 µM): -5.23%
O=C(Nc1cccnn1)N1CCC(=Cc2cccc(Oc3ccc(C(F)(F)F)cn3)c2)CC1 — inhibition (strychnine-sensitive glycine receptor, rat; binding; 50 µM, together with: [3H]strychnine): 8%
CNC(=O)[C@@H](NC(=O)[C@H](CC(C)C)[C@H](O)C(=O)NO)C(C)(C)C — viability difference (C2C12; 10 µM, together with: GA venom; baseline: venom alone): 6.09%
O=C(NCC[C@@H]1c2ccccc2CCN1C(=O)c1ncnc2[nH]ccc12)c1ccc[n+]([O-])c1 — inhibition (rep main protease; enzyme activity, inhibitor; 5 µM, mean of runs): 13.4%
O=c1c(-c2ccc(O)cc2)coc2c([C@@H]3O[C@H](CO[C@@H]4OC[C@@H](O)[C@H](O)[C@H]4O)[C@@H](O)[C@H](O)[C@H]3O)c(O)ccc12 — inhibition (rep main protease; reporter gene (mKate2), inhibitor; 20 µM): -0.848%
O=C(NC[C@@H]1Cc2ccccc2CN1C(=O)c1noc2c1CCCC2)c1cn[nH]c(=O)c1 — inhibition (rep main protease; enzyme activity, inhibitor; 5 µM, run 1): 6.6%
CC(C)N1CCC[C@H]1CNC(=O)c1cn(C2CCCC2)c(=O)c2c1c1ccccc1n2C — inhibition (CHRNA1/CHRNG/CHRND; radioligand binding; 10 µM): 1%
Cc1nc(C(=O)N2CC[C@H](N[C@@H]3N=C(c4ccccc4)Nc4ccccc43)C2)cc(=O)[nH]1 — inhibition (rep main protease; enzyme activity, inhibitor; 5 µM, run 2): 15.8%
COC(=O)NCCc1c(C(O)c2ccccc2)[nH]c2ccc(OC)cc12 (centres unmarked) — inhibition (RBD, SARS-CoV-2, spike, with ACE2; RBD binding, TR-FRET; 100 µM, together with: RBD-d2 5 nM): 20 to 30%
O=C1N=C(N2CCCCN2)S/C1=C\c1ccc(F)cc1O — inhibition (rat sodium channel site 2; radioligand binding; rat cerebral cortex; 10 µM, together with: [3H]batrachotoxinin): 14%
CCN(Cc1ccccc1C(F)(F)F)C(=O)C1CCN(S(=O)(=O)c2ccc3[nH]ncc3c2)CC1 — inhibition (CHRNA1/CHRNG/CHRND; 10 µM): 1%
C#Cc1cccc(NC(=O)NC(=O)CCl)c1 — inhibition (Polyprotein P1234, nsP2 protease domain (Chikungunya virus, UniProt Q5XXP4); protease activity, FRET; 20 µM): 101%
N[C@@H](CC(=O)N1CCc2c(nc(C(F)(F)F)nc2C(F)(F)F)C1)CN1CC(F)(F)CCC1=O — inhibition (rep main protease; reporter gene (mKate2), inhibitor; 20 µM): -0.46%
O=C(c1cnn2c1CCC2)N1CCCCC[C@@H](Nc2nc(-c3cccnc3)nc3c2CCC3)C1 — inhibition (rep main protease; enzyme activity, inhibitor; 5 µM, run 2): 16.2%
O=C(Nc1cnccc1Cl)N1CCN(Cc2ccc3c(c2)OC(F)(F)O3)CC1 — inhibition (strychnine-sensitive glycine receptor, rat; binding; 50 µM, together with: [3H]strychnine): 38%
CC(=O)c1ccc(O)c(O)c1 — inhibition (rep main protease; reporter gene (mKate2), inhibitor; 20 µM): -0.847%
CN[C@@]1(c2ccccc2Cl)CCCCC1=O — inhibition (muscarinic acetylcholine receptor; radioligand binding, antagonist, radioligand displacement; 30 µM): 24%
Oc1cc(O)c2c(c1)O[C@H](c1cc(O)c(O)c(O)c1)[C@H](O)C2 — Kd (Spike glycoprotein; binding, BLI): 63.1 µM
CC(=O)c1cc([N+](=O)[O-])c(Sc2ccc(F)cc2F)s1 — inhibition (rep main protease; viral replication, mKate2 reporter; SARS-CoV-2; 20 µM): 0.233%
COC(=O)NCCc1c(C(O)c2ccc(OC)cc2)[nH]c2ccc(OC)cc12 (centres unmarked) — inhibition (RBD, SARS-CoV-2, spike, with ACE2; RBD binding, TR-FRET; 100 µM, together with: RBD-d2 5 nM): 20 to 30%
Cn1cnc(Cn2c(=O)[nH]/c(=N\c3cc4cn(C)nc4cc3Cl)n(Cc3cc(F)c(F)cc3F)c2=O)n1 — dry mouth TEAE, Moderate severity (human, moderate renal impairment; oral, 375 mg): 0%
Cc1ccc(C#Cc2ccc(S(=O)(=O)N[C@H](Cc3c[nH]c4ccccc34)C(=O)O)s2)cc1 — inhibition (rep main protease; viral replication, mKate2 reporter; SARS-CoV-2; 20 µM): -0.509%
COc1ccc(OS(=O)(=O)NC(=O)CCCCc2ccccc2)cc1 — inhibition (plsY3; inhibitor; 200 µM): 13%
CC(C)C[C@@H](C=O)NC(=O)[C@H](CC(C)C)NC(=O)[C@H](CC(C)C)NC(=O)OCc1ccccc1 — inhibition (rep main protease; reporter gene (mKate2), inhibitor; 20 µM): -1.44%
Cc1nocc1C(=O)N1Cc2ccccc2[C@@H](CNC(=O)c2cncc3ccc(F)cc23)C1 — inhibition (rep main protease; enzyme activity, inhibitor; 5 µM, run 2): 8.8%
Nc1ncnc2c([C@@H]3N[C@H](CO)[C@@H](O)[C@H]3O)c[nH]c12 — inhibition (Marburg marburgvirus; viral glycoprotein surface expression; HeLa, Musoke; 100 µM): 98.9%
O=c1c(O)c(-c2ccc(O)cc2O)oc2cc(O)cc(O)c12 — Kd (Spike glycoprotein; binding, BLI): 72.7 µM
O=C(NC[C@H](NC(=O)c1cncc2ccccc12)c1ccc2ccccc2c1)c1cn[nH]n1 — inhibition (rep main protease; enzyme activity, inhibitor; 5 µM, run 2): 13.2%
CCCCCCCC/C=C\CCCCCCCCNC(=O)CP(=O)(O)O — inhibition (plsY3; inhibitor; 200 µM): 62%
Cc1cc(=O)[nH]cc1C(=O)N1C[C@@]23CCCC[C@@]2(CN(C(=O)C[C@H]2NC(=O)NC2=O)C3)C1 — inhibition (rep main protease; enzyme activity, inhibitor; 5 µM, mean of runs): 11.3%
CCCC(=O)CP(=O)(O)O — inhibition (plsY3; inhibitor; 200 µM): 0%
CC(C)(CC(=O)N1CCCC1)NCC(=O)N1C[C@@H](F)C[C@H]1C#N — inhibition (rep main protease; reporter gene (mKate2), inhibitor; 20 µM): -0.475%
CC[C@H](C)[C@H](NC(=O)[C@H](CC(C)C)NC(=O)[C@H](Cc1c[nH]c2ccccc12)NC(=O)[C@H](CCC(N)=O)NC(=O)[C@@H](NC(=O)[C@H](Cc1ccccc1)NC(=O)[C@H](C)NC(=O)[C@H](CCCCNC(=O)COCCOCCNC(=O)COCCOCCNC(=O)CC[C@H](NC(=O)CCCCCCCCCCCCCCCCCCC(=O)O)C(=O)O)NC(=O)[C@H](CCC(N)=O)NC(=O)[C@H](C)NC(=O)[C@@H](NC(=O)[C@H](CCCCN)NC(=O)[C@H](CC(=O)O)NC(=O)[C@H](CC(C)C)NC(=O)C(C)(C)NC(=O)[C@@H](NC(=O)[C@H](CO)NC(=O)[C@H](Cc1ccc(O)cc1)NC(=O)[C@H](CC(=O)O)NC(=O)[C@H](CO)NC(=O)[C@@H](NC(=O)[C@H](Cc1ccccc1)NC(=O)[C@@H](NC(=O)CNC(=O)[C@H](CCC(=O)O)NC(=O)C(C)(C)NC(=O)[C@@H](N)Cc1ccc(O)cc1)[C@@H](C)O)[C@@H](C)O)[C@@H](C)CC)[C@@H](C)CC)C(C)C)C(=O)N[C@@H](C)C(=O)NCC(=O)NCC(=O)N1CCC[C@H]1C(=O)N[C@@H](CO)C(=O)N[C@@H](CO)C(=O)NCC(=O)N[C@@H](C)C(=O)N1CCC[C@H]1C(=O)N1CCC[C@H]1C(=O)N1CCC[C@H]1C(=O)N[C@@H](CO)C(N)=O — severe hypoglycaemia (healthy subjects; 0.5 mg, multiple ascending dose): 0%
O=C1CC(C(=O)N2CC3(CCC3)C[C@H]2CNC(=O)c2cncc3[nH]cnc23)CC(=O)N1 — inhibition (rep main protease; enzyme activity, inhibitor; 5 µM, run 2): 11.9%
CCCCCCCCCCCC(=O)CP(=O)(O)O — inhibition (plsY3; inhibitor; 200 µM): 28%

Repeated from above:
N[C@@H](CC(=O)N1CCc2c(nc(C(F)(F)F)nc2C(F)(F)F)C1)CN1CC(F)(F)CCC1=O — inhibition (rep main protease; reporter gene (mKate2), inhibitor; 20 µM): -0.46%
Cn1cnc(Cn2c(=O)[nH]/c(=N\c3cc4cn(C)nc4cc3Cl)n(Cc3cc(F)c(F)cc3F)c2=O)n1 — dry mouth TEAE, Moderate severity (human, moderate renal impairment; oral, 375 mg): 0%
C#Cc1cccc(NC(=O)NC(=O)CCl)c1 — inhibition (Polyprotein P1234, nsP2 protease domain (Chikungunya virus, UniProt Q5XXP4); protease activity, FRET; 20 µM): 101%
COc1ccc(OS(=O)(=O)NC(=O)CCCCc2ccccc2)cc1 — inhibition (plsY3; inhibitor; 200 µM): 13%
Cc1cc(=O)[nH]cc1C(=O)N1C[C@@]23CCCC[C@@]2(CN(C(=O)C[C@H]2NC(=O)NC2=O)C3)C1 — inhibition (rep main protease; enzyme activity, inhibitor; 5 µM, mean of runs): 11.3%
